Results pooled from the literature.
Each line is one published result; not all experiments were run side by side. “And” joins repeats or separate records; there may be more than shown. ± gives the spread as reported.
CHRM2: Muscarinic acetylcholine receptor M2 (CHRM2, Homo sapiens, UniProt P08172)
Sequence of UniProt P08172 (whole entry, looked up): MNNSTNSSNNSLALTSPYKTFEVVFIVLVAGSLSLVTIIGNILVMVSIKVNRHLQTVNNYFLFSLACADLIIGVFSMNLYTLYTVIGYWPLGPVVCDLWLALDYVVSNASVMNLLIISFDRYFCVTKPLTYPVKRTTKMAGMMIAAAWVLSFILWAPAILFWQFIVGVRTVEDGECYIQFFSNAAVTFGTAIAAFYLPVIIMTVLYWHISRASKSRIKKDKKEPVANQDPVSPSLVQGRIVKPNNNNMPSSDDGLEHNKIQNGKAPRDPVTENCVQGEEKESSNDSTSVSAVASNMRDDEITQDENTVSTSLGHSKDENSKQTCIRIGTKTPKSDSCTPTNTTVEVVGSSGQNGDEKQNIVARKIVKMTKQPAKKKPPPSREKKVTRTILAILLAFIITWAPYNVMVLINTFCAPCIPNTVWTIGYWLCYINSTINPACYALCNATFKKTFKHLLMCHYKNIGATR
Uncharacterized protein: Uncharacterized protein (Trypanosoma cruzi, UniProt Q4DRC3)
CASP9: Caspase-9 (CASP9, Homo sapiens, UniProt P55211)
Sequence of UniProt P55211 (whole entry, looked up): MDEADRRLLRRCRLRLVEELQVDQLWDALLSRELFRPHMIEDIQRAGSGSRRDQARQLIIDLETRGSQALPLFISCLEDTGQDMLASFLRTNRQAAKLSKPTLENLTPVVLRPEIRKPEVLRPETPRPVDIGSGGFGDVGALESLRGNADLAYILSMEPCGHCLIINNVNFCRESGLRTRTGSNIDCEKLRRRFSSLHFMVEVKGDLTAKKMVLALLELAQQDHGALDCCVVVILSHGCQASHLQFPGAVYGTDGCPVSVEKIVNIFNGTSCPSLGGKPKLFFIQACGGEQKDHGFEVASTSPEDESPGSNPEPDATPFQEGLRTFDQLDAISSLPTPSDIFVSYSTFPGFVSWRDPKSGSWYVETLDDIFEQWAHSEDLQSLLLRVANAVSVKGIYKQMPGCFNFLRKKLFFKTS
DRD3: D(3) dopamine receptor (DRD3, Homo sapiens, UniProt P35462)
Sequence of UniProt P35462 (whole entry, looked up): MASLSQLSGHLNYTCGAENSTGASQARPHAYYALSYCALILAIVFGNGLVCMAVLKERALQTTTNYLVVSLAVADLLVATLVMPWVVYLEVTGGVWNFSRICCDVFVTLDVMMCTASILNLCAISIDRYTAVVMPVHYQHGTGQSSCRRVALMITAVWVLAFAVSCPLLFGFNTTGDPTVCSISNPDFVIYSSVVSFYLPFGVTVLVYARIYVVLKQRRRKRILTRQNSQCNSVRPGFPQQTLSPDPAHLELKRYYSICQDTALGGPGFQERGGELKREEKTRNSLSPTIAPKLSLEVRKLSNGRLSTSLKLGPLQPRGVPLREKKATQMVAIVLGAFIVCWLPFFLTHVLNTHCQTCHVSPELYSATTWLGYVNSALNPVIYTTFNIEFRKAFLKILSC
cathepsin L: cathepsin L (Capra hircus, UniProt A0A452FFI6)
HTR6: 5-hydroxytryptamine receptor 6 (HTR6, Homo sapiens, UniProt P50406)
Sequence of UniProt P50406 (whole entry, looked up): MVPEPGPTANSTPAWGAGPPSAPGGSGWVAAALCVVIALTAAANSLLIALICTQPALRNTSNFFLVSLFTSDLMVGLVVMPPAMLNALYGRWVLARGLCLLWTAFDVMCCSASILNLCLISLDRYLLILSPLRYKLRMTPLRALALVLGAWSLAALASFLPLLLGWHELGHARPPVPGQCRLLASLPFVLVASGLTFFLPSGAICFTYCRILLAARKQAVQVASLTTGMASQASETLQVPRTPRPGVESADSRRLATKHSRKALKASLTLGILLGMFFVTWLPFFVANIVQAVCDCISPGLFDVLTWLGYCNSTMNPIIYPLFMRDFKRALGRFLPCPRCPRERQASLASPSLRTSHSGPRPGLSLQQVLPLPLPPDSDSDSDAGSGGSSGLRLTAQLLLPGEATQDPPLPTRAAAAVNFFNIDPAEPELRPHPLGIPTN
chemosensory protein 5: chemosensory protein 5 (Mythimna separata, UniProt A0A5H2NAD7)
KDM1A: Lysine-specific histone demethylase 1A (KDM1A, Homo sapiens, UniProt O60341)
Sequence of UniProt P51692 (whole entry, looked up): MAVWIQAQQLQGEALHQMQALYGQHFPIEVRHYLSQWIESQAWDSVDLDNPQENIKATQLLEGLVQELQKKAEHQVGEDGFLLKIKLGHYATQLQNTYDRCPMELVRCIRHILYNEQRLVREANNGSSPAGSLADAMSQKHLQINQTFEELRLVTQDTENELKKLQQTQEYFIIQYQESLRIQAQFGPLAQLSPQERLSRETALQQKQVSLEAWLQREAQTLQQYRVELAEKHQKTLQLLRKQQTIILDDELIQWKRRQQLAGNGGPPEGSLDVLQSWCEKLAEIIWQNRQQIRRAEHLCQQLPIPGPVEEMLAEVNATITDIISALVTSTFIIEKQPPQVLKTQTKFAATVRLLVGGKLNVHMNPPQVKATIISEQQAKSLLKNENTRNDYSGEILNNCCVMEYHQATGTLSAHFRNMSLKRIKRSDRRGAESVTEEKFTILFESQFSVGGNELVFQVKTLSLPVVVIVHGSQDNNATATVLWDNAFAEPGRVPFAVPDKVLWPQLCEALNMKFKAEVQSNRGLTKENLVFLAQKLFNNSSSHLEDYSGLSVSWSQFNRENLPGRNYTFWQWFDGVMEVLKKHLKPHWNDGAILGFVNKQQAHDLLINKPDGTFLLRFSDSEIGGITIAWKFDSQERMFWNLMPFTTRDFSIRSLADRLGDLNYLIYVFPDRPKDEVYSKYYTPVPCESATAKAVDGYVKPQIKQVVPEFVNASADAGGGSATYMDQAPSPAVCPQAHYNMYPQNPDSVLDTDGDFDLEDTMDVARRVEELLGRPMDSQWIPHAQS
Sequence of UniProt Q9NSD7 (whole entry, looked up): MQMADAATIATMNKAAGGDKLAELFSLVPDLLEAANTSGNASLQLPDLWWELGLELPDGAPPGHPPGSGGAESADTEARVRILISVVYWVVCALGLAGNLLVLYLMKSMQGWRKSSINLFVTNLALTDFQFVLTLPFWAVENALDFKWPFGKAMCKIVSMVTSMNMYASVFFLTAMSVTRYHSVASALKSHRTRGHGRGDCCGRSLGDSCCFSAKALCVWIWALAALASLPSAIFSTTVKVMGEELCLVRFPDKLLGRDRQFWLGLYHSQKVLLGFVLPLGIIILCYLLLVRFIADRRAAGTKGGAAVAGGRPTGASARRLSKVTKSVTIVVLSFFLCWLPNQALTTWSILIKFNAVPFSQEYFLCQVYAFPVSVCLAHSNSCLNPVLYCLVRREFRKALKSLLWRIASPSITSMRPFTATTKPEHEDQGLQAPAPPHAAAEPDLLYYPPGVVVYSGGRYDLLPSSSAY
Sequence of UniProt P41143 (whole entry, looked up): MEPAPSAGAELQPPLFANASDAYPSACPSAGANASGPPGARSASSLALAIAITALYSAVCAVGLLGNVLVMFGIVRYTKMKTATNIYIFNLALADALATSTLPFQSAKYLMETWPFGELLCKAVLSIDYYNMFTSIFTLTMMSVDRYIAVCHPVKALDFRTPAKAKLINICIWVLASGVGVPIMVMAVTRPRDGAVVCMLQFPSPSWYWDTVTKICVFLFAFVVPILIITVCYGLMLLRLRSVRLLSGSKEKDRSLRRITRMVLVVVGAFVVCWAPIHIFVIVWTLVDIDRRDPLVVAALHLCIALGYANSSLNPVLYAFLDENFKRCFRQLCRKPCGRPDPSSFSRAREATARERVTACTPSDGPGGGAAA
Sequence of UniProt Q8R0I0 (whole entry, looked up): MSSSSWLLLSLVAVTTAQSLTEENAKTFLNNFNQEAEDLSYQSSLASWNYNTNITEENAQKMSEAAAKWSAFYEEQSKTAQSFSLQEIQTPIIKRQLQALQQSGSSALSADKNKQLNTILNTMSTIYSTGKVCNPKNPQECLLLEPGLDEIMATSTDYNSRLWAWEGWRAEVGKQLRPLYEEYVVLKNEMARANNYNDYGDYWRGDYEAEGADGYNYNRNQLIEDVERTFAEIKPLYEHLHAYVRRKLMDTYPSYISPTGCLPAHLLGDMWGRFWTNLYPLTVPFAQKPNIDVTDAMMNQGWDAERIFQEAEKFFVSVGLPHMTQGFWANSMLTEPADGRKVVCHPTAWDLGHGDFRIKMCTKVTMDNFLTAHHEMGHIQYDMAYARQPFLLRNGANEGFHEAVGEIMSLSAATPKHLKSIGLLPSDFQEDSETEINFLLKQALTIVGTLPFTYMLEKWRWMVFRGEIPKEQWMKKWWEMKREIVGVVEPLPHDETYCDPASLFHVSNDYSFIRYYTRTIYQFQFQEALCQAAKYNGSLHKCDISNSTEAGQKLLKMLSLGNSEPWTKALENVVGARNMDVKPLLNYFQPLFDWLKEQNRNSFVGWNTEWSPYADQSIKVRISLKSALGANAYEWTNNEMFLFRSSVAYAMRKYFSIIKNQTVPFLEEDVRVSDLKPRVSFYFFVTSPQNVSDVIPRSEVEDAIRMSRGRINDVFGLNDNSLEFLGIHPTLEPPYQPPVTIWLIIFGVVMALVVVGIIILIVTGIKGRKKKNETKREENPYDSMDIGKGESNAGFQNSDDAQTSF
Sequence of UniProt Q66K64 (whole entry, looked up): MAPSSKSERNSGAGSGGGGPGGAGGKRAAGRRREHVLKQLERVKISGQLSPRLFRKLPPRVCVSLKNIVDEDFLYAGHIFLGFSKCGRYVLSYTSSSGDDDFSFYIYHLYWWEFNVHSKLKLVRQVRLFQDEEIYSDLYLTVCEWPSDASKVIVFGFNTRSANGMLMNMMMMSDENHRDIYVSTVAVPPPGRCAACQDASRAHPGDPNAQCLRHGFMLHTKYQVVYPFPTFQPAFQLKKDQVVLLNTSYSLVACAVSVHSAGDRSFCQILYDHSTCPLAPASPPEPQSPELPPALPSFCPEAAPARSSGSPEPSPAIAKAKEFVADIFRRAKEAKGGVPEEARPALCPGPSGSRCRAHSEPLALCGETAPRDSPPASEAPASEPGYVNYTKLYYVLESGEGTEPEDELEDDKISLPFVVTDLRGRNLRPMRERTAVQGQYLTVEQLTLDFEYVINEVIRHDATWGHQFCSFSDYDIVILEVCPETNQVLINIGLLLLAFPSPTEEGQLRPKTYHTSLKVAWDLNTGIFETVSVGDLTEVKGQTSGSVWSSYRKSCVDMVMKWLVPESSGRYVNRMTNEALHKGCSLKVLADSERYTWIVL

| SMILES | target | test | system | setting | Ki |
| --- | --- | --- | --- | --- | --- |
| CN1CCC=C(c2nsnc2OCCCCCNC(=O)c2ccc(C(=O)NCCCCCOc3nsnc3C3=CCCN(C)C3)cc2)C1 | CHRM2 | ligand displacement, radioligand | – | – | 0.00417 µM |
| Nc1nc2c([C@@H]3N[C@H](COP(=O)(O)O)[C@@H](O)[C@H]3O)c[nH]c2c(=O)[nH]1 | Uncharacterized protein | IMP formation, uncompetitive inhibitor | – | pH 8.3, 37 °C, added: hypoxanthine 120 µM, PRPP 1 mM | 36 ± 5 µM |
| CC1=CC(C)=[N+]2C1=C(CCCCCN1CCC(O)(c3ccccc3)CC1)c1c(C)cc(C)n1[B-]2(F)F | Sodium- and chloride-dependent glycine transporter 2 (Homo sapiens, UniProt Q9Y345) | cell-free assay, mass spectrometry | – | – | 1.15 µM |
| CC(=O)N[C@@H](Cc1ccccc1)C(=O)N[C@@H](CC(=O)O)C(=O)N[C@H](C(=O)N1CCC[C@H]1C(=O)N[C@H](C=O)CC(=O)O)C(C)C | CASP9 | enzyme activity, inhibitor, fluorescence | – | pH 7 | 1.05 µM |
| CC(=O)NCC(=O)N[C@@H](CC(=O)O)C(=O)N[C@@H](Cc1ccc(O)cc1)C(=O)N[C@@H](CO)C(=O)N[C@@H](Cc1cnc[nH]1)C(=O)N[C@H]1CSSC[C@@H](C(=O)N[C@H](C(=O)N[C@@H](Cc2ccc(O)cc2)C(=O)N2CCC[C@H]2C(=O)N[C@@H](CC(=O)O)C(=O)N2CCC[C@H]2C(=O)N[C@@H](CCC(=O)O)C(=O)NCC(=O)NCC(=O)NCC(N)=O)[C@@H](C)O)NC(=O)[C@H](CCCCN)NC(=O)[C@H](Cc2c[nH]c3ccccc23)NC(=O)[C@H](Cc2c[nH]c3ccccc23)NC(=O)[C@@H]2CCCN2C(=O)[C@H](Cc2ccc(O)cc2)NC(=O)[C@H](Cc2ccc(O)cc2)NC(=O)[C@H](CCCNC(=N)N)NC(=O)[C@H](CC(C)C)NC(=O)[C@@H]2CCCN2C(=O)[C@H](CO)NC1=O | Angiotensin-converting enzyme 2 (Ace2, Mus musculus, UniProt Q8R0I0) | inhibitor | – | – | 1.2 ± 0.9 µM |
| CC(=O)NCC(=O)N[C@@H](CCC(=O)O)C(=O)N[C@@H](CO)C(=O)N1CCC[C@H]1C(=O)N[C@H](C=O)CC(=O)O | CASP9 | enzyme activity, inhibitor, fluorescence | – | pH 7 | 2.45 µM |
| CCC(=O)NCc1cc(C(=O)NCCN2CCN(CCCCC3CCN(CC(=O)N4c5ccccc5NC(=O)c5ccccc54)CC3)CC2)cc(C(=O)NCCN2CCN(CCOC(=O)C3c4ccccc4Oc4ccccc43)CC2)c1 | CHRM2 | ligand displacement, radioligand | – | – | 0.0011 µM |
| CN(C)C1(CNC(=O)c2cnn(-c3ccc(Cl)cc3)c2)CCSC1 (centres unmarked) | DRD3 | ligand displacement, radioligand | – | cell membranes | > 10 µM |
| NC1CN(CCCCC2CCN(CC(=O)N3c4ccccc4NC(=O)c4ccccc43)CC2)CCN(CC(=O)N2CCC(N3CCC(n4c(=O)[nH]c5ccccc54)CC3)CC2)C1 (centres unmarked) | CHRM2 | ligand displacement, radioligand | – | – | 0.000692 µM |
| COc1ccccc1/C=C/C(=N\NC(N)=O)c1ccccc1 | cathepsin L | enzyme activity, competitive inhibitor | goat liver enzyme | pH 6.0, added: Z-Phe-Arg-4-methoxy-β-naphthylamide | 0.00031 ± 5e-06 µM |
| CNc1ccc(/C=C/c2ccc(O)cc2)cc1 | Alpha-synuclein, filaments (SNCA, Homo sapiens, UniProt P37840) | radioligand displacement | α-synuclein filaments | added: [3H]Me-BTA-1 4 nM | 0.087 ± 0.021 µM |
| c1cc(N2CCN(CCCOc3ccc(CN4CCCCC4)cc3)CC2)c2ccsc2c1 | HTR6 | ligand displacement, radioligand | – | – | 0.438 µM |
| CC1=CC[C@@H]2C[C@H]1C2(C)C | chemosensory protein 5 | binding, 1-NPN displacement | – | pH 7.4 | 5.78 µM |
| O=C(c1ccc(=O)n(CCF)c1)C1CCN(C2Cc3ccccc3CC2O)CC1 (single isomer, unassigned; (-)) | SLC18A3 (Homo sapiens, UniProt Q16572) | ligand displacement, radioligand | – | – | 0.00037 µM |
| CCC(=O)NCc1cc(C(=O)NCCN2CCC(OC(=O)C(c3ccccc3)c3ccccc3)CC2)cc(C(=O)NCCN2CCN(CCCCC3CCN(CC(=O)N4c5ccccc5NC(=O)c5ccccc54)CC3)CC2)c1 | CHRM2 | ligand displacement, radioligand | – | – | 0.00115 µM |
| CCn1c2ccccc2c2cc(CNCCCn3ccnc3)ccc21 | DRD3 | cell-free assay | – | – | 0.685 µM |
| CCS[C@H]1CC[C@@H](N(C)CC(=O)Nc2ccc(C)c(C)c2)C1 | DRD3 | ligand displacement, radioligand | – | cell membranes | > 10 µM |
| CC1=CC[C@@H]2[C@H](C1)C2(C)C | chemosensory protein 5 | binding, 1-NPN displacement | – | pH 5.0 | 4.67 µM |
| CNC(=O)C1CCN(c2cc(C)c(F)cc2NC(=O)c2ccc(-c3cc(O)ccc3C)c(C)c2)CC1 | EPHB4 (Homo sapiens, UniProt P54760) | cell-free assay, TR-FRET | – | – | 0.0048 µM |
| CCC[C@@H]1[C@H](O)[C@@H](O)[C@H](O)[C@@H](CO)N1C(=S)NCc1ccc(C(F)(F)F)cc1 | beta-glucosidase (almond) | competitive inhibitor | – | added: p-nitrophenyl glucopyranoside | > 2000 µM |
| CC(=O)Nc1ccc(-n2cnc(C(=O)NCc3cccs3)c2)nc1 | Alpha-synuclein, fibril (SNCA, Homo sapiens, UniProt P37840) | ligand displacement, radioligand | – | – | 0.388 µM |
| O=C(NS(=O)(=O)c1ccc(Br)s1)c1ccc(Cl)cc1Cl | DDB1- and CUL4-associated factor 15 (Homo sapiens, UniProt Q66K64) | binding | – | – | > 50 µM |

| SMILES | target | test | system | setting | Ki |
| --- | --- | --- | --- | --- | --- |
| CC(C)C(=O)N[C@@H](C)C(=O)N[C@@H](CCCNC(=N)N)C(=O)N[C@@H](C)C(N)=O | WDR5 (Homo sapiens, UniProt P61964) | ligand displacement, FP | – | – | 0.04 µM |
| COc1ccc(CCCNCCCN(CCCN)CCCCNCCCN)cc1 | KDM1A | enzyme activity, inhibitor, absorbance | – | – | > 50 µM |
| Nc1nc(O)c2[nH]cc(CN[C@H](CO)CCP(=O)(O)O)c2n1 | Uncharacterized protein | IMP formation, uncompetitive inhibitor | – | pH 8.3, 37 °C, added: hypoxanthine 120 µM, PRPP 1 mM | 0.6 to 1.6 µM and 0.6 µM |
| NC(=O)N/N=C(\C=C\c1ccc([N+](=O)[O-])cc1)c1ccccc1 | cathepsin L | enzyme activity, competitive inhibitor | goat liver enzyme | pH 6.0, added: Z-Phe-Arg-4-methoxy-β-naphthylamide | 0.0168 ± 6e-05 µM |
| OC[C@@H]1[C@@H](O)[C@H](O)[C@@H](O)c2nccn21 | sweet almond β-glucosidase | inhibitor | – | pH 5.2, added: 2,4-dinitrophenyl β-D-glucopyranoside | 0.067 ± 0.004 µM |
| COc1ccc(CCCN[C@H]2CCC[C@@H]2CN[C@H]2CCC[C@@H]2CNCCCCN[C@H]2CCC[C@@H]2CN)cc1 | KDM1A | enzyme activity, inhibitor | – | – | 2.4 µM |
| O=P(O)(O)CC[C@@H](CO)NCc1c[nH]c2c(O)nc(O)nc12 | Uncharacterized protein | IMP formation, uncompetitive inhibitor | – | pH 8.3, 37 °C, added: hypoxanthine 120 µM, PRPP 1 mM | 0.9 ± 0.1 µM |
| CC[C@H](C)[C@H](NC(=O)[C@H](Cc1ccccc1)NC(=O)[C@H](CCC(=O)O)NC(=O)[C@H](CCCN=C(N)N)NC(=O)CNC(=O)[C@H](CO)NC(=O)[C@H](CC(C)C)NC(=O)[C@H](CCCN=C(N)N)NC(=O)[C@@H](NC(=O)CNC(=O)[C@H](Cc1ccc(O)cc1)NC(=O)[C@@H]1CCCN1C(=O)[C@H](C)NC(=O)[C@H](C)NC(=O)[C@@H](N)CCCN=C(N)N)C(C)C)C(=O)N[C@@H](CCCN=C(N)N)C(=O)N[C@@H](C)C(=O)N[C@H](C(=O)N[C@H](C(=O)N[C@@H](Cc1ccccc1)C(=O)N[C@H](C(=O)N[C@@H](CO)C(=O)NCC(=O)NCC(=O)N[C@@H](CO)C(=O)N[C@@H](CCCN=C(N)N)C(=O)N[C@@H](Cc1c[nH]c2ccccc12)C(=O)O)[C@@H](C)O)[C@@H](C)CC)C(C)C | RXFP3 (Homo sapiens, UniProt Q9NSD7) | ligand displacement | – | – | 1.78 µM |
| CCCCCCCC[C@@H]1[C@H](O)[C@@H](O)[C@H](O)[C@H]2CS/C(=N/CCCC)N12 | beta-glucosidase (almond) | competitive inhibitor | – | added: p-nitrophenyl glucopyranoside | > 2000 µM |
| CCC(=O)NCc1cc(C(=O)NCCN2CCN(CCCCC3CCN(CC(=O)N4c5ccccc5NC(=O)c5ccccc54)CC3)CC2)cc(C(=O)NCCN2CCN(CCCCC3CCN(CC(=O)N4c5ccccc5NC(=O)c5ccccc54)CC3)CC2)c1 | CHRM2 | ligand displacement, radioligand | – | – | 0.000575 µM |
| CN(C)S(=O)(=O)c1ccc(S(=O)(=O)N2CCC(n3c(=O)[nH]c4ccccc43)CC2)cc1 | mfd, C-terminal domain (Escherichia coli, UniProt P30958) | ATPase activity | – | – | 27 ± 1.9 µM |
| CCCCCCOc1ccc(C(=O)OCC[N+]2(C)CC=CCC2)cc1 (centres unmarked) | muscarinic receptors M1-M5, human | binding | – | added: [3H]-NMS 1 nM | ~0.3 µM |
| CCC(=O)NC1CN(CCCCC2CCN(CC(=O)N3c4ccccc4NC(=O)c4ccccc43)CC2)CCN(CC(=O)N2CCC(N3CCC(n4c(=O)[nH]c5ccccc54)CC3)CC2)C1 (centres unmarked) | CHRM2 | ligand displacement, radioligand | – | – | 0.000776 µM |
| CCCCNC(=S)N1[C@H](CCC)[C@H](O)[C@@H](O)[C@H](O)[C@H]1CO | beta-glucosidase (almond) | competitive inhibitor | – | added: p-nitrophenyl glucopyranoside | > 2000 µM |
| Nc1ncnc2c(CN3C[C@H](CSc4cnccn4)[C@@H](O)C3)c[nH]c12 | MTA/SAH nucleosidase (Campylobacter jejuni subsp. jejuni, UniProt Z9IB28FKP7) | slow-onset tight-binding inhibitor | – | pH 7.4, 25 °C, added: MTA 1 mM | 0.0014 ± 0.0002 µM |
| Clc1cc(CN2CCCCC2)ccc1OCCCN1CCN(c2cccc3sccc23)CC1 | HTR6 | ligand displacement, radioligand | – | – | 0.375 µM |
| Cc1ccccc1CO[C@@H](CO)[C@H](O)C[S@@+]1C[C@@H](O)[C@H](O)[C@H]1CO | GAA (Homo sapiens, UniProt P10253) | enzyme activity, inhibitor, absorbance | – | pH 5.2 | 0.034 µM |
| Clc1cc(OCCCN2CCN(c3cccc4sccc34)CC2)ccc1CN1CCCCC1 | HTR6 | ligand displacement, radioligand | – | – | 0.396 µM |
| CCCCN(CCc1ccccc1)CCc1cccc(O)c1 | OPRD1 (Homo sapiens, UniProt P41143) | ligand displacement, radioligand | – | cell membranes | 2.8 µM |
| O=C(CCCCc1ccc(OP(=O)(O)O)c(OP(=O)(O)O)c1)N1CCCCC1 | Signal transducer and activator of transcription 5B, SH2 (STAT5B, Homo sapiens, UniProt P51692) | ligand displacement, FP | – | – | 0.73 µM |
| NC(=O)N/N=C(/C=C/c1ccccc1)c1ccccc1 | cathepsin L | enzyme activity, competitive inhibitor | goat liver enzyme | pH 6.0, added: Z-Phe-Arg-4-methoxy-β-naphthylamide | 0.00227 ± 4e-05 µM |
| Cc1cccc(NC(=O)CN2CCC(c3ccccc3)CC2)c1 | DRD3 | – | – | – | 0.806 ± 0.145 µM |

Repeated from above:
| SMILES | target | test | system | setting | Ki |
| --- | --- | --- | --- | --- | --- |
| CCC(=O)NCc1cc(C(=O)NCCN2CCN(CCCCC3CCN(CC(=O)N4c5ccccc5NC(=O)c5ccccc54)CC3)CC2)cc(C(=O)NCCN2CCN(CCOC(=O)C3c4ccccc4Oc4ccccc43)CC2)c1 | CHRM2 | ligand displacement, radioligand | – | – | 0.0011 µM |
| CN(C)C1(CNC(=O)c2cnn(-c3ccc(Cl)cc3)c2)CCSC1 (centres unmarked) | DRD3 | ligand displacement, radioligand | – | cell membranes | > 10 µM |
| NC1CN(CCCCC2CCN(CC(=O)N3c4ccccc4NC(=O)c4ccccc43)CC2)CCN(CC(=O)N2CCC(N3CCC(n4c(=O)[nH]c5ccccc54)CC3)CC2)C1 (centres unmarked) | CHRM2 | ligand displacement, radioligand | – | – | 0.000692 µM |
| COc1ccccc1/C=C/C(=N\NC(N)=O)c1ccccc1 | cathepsin L | enzyme activity, competitive inhibitor | goat liver enzyme | pH 6.0, added: Z-Phe-Arg-4-methoxy-β-naphthylamide | 0.00031 ± 5e-06 µM |
| CNc1ccc(/C=C/c2ccc(O)cc2)cc1 | Alpha-synuclein, filaments (SNCA, Homo sapiens, UniProt P37840) | radioligand displacement | α-synuclein filaments | added: [3H]Me-BTA-1 4 nM | 0.087 ± 0.021 µM |
| c1cc(N2CCN(CCCOc3ccc(CN4CCCCC4)cc3)CC2)c2ccsc2c1 | HTR6 | ligand displacement, radioligand | – | – | 0.438 µM |
